Experimental data collected from several papers.
Every numbered part comes from another study and shows a few of its results, in no order. Values joined by “and” are separate records of one study, mostly repeats; a detail may differ.
Chain of UniProt Q9H0K1 (whole entry, looked up): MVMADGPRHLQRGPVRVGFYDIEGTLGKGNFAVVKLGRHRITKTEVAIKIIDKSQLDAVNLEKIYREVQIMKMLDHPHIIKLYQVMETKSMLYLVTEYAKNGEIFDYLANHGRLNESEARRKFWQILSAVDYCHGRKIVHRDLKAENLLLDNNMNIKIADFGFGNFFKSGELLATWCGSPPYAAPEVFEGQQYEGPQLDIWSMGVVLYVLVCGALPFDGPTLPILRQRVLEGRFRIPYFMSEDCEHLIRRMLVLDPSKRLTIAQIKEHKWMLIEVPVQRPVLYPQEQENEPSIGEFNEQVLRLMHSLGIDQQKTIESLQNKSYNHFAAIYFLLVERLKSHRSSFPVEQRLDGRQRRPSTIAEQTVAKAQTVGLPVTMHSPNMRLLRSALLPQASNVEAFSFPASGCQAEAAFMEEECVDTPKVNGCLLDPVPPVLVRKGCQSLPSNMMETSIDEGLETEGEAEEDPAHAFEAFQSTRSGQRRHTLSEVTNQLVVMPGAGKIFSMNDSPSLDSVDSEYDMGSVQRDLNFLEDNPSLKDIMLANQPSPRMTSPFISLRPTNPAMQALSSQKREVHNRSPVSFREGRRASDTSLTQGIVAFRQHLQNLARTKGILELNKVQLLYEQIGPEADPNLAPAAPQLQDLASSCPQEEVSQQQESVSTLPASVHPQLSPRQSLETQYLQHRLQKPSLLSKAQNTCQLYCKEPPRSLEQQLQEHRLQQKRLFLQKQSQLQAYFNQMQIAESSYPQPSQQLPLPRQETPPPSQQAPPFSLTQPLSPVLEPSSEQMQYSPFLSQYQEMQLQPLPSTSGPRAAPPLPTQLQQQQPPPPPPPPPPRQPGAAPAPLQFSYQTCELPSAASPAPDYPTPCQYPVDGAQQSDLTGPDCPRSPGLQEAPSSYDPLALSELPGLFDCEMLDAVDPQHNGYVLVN
Chain of UniProt Q15831 (whole entry, looked up): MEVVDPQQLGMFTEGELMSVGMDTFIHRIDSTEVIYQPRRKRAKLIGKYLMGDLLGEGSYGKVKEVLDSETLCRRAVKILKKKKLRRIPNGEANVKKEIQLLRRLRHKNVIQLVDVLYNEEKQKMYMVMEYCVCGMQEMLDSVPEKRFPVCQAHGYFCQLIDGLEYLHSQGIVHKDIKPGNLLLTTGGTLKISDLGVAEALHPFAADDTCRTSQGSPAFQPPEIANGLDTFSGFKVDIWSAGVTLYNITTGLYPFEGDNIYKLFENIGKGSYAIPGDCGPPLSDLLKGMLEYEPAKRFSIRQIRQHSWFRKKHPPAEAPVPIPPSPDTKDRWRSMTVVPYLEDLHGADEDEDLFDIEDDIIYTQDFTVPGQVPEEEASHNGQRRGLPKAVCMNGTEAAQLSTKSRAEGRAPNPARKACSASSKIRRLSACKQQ
Chain of UniProt P07948 (whole entry, looked up): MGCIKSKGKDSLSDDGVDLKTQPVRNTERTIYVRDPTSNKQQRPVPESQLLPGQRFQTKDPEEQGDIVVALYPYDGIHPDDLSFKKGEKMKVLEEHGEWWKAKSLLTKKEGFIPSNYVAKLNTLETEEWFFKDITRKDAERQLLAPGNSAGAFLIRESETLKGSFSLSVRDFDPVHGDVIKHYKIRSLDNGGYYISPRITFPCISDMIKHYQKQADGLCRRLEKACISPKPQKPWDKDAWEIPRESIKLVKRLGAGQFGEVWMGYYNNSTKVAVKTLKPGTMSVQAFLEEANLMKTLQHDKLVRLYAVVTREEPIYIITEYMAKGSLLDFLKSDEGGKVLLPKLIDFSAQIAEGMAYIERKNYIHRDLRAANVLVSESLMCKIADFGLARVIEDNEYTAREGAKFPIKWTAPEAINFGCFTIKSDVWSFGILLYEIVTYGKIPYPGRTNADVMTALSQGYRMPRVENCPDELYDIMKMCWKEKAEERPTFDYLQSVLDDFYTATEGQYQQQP
Chain of UniProt Q13557 (whole entry, looked up): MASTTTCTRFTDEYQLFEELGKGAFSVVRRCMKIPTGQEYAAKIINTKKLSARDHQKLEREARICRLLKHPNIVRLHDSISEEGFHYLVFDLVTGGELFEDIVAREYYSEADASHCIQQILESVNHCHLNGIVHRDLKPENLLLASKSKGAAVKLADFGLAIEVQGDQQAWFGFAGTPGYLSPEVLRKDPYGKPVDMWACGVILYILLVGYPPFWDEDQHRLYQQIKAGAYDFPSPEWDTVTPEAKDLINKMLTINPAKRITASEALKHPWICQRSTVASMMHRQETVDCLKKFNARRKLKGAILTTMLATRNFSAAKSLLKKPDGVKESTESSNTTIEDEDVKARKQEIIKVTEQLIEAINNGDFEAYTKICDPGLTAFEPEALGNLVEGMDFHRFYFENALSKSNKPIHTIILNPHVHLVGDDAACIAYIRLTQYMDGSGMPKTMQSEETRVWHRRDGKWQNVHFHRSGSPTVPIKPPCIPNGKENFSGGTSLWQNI
Chain of UniProt P11802 (whole entry, looked up): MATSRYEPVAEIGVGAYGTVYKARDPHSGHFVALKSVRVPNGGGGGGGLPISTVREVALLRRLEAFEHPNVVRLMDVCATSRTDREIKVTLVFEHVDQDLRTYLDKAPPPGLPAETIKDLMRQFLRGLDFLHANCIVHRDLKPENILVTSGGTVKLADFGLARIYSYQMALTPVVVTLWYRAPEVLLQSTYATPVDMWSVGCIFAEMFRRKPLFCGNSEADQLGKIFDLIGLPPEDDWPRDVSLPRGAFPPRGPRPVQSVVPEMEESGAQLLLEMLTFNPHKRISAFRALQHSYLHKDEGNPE
Chain of UniProt Q9BWU1 (whole entry, looked up): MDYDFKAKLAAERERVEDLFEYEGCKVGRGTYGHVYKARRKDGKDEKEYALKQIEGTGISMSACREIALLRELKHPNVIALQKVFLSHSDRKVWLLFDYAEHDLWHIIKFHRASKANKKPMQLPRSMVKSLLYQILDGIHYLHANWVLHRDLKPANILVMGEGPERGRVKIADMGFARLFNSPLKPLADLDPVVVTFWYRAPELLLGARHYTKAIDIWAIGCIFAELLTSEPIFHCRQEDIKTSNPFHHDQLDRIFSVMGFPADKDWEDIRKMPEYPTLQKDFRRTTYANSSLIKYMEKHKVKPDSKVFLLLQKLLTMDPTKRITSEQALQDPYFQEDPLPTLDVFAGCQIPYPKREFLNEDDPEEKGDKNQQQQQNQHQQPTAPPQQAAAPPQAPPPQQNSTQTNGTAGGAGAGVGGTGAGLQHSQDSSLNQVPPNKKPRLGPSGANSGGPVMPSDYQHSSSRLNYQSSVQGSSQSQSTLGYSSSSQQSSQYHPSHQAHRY
Chain of UniProt Q13976 (whole entry, looked up): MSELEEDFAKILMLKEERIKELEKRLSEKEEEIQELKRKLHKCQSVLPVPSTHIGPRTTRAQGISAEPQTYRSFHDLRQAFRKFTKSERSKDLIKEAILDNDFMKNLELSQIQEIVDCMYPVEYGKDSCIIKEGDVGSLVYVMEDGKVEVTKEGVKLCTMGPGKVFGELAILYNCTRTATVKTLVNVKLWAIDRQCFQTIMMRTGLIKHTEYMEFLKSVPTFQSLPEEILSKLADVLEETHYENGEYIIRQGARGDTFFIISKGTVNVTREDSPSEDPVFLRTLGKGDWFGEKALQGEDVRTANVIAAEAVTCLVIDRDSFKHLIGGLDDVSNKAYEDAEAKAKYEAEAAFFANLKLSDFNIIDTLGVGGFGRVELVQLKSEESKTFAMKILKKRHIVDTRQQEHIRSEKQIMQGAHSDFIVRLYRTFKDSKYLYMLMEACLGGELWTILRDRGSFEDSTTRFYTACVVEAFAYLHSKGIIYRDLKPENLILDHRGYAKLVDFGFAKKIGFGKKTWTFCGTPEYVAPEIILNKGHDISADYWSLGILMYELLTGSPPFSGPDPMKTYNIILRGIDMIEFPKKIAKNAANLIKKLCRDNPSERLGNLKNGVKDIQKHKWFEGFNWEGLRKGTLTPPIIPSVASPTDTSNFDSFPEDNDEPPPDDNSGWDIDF
Chain of UniProt P30530 (whole entry, looked up): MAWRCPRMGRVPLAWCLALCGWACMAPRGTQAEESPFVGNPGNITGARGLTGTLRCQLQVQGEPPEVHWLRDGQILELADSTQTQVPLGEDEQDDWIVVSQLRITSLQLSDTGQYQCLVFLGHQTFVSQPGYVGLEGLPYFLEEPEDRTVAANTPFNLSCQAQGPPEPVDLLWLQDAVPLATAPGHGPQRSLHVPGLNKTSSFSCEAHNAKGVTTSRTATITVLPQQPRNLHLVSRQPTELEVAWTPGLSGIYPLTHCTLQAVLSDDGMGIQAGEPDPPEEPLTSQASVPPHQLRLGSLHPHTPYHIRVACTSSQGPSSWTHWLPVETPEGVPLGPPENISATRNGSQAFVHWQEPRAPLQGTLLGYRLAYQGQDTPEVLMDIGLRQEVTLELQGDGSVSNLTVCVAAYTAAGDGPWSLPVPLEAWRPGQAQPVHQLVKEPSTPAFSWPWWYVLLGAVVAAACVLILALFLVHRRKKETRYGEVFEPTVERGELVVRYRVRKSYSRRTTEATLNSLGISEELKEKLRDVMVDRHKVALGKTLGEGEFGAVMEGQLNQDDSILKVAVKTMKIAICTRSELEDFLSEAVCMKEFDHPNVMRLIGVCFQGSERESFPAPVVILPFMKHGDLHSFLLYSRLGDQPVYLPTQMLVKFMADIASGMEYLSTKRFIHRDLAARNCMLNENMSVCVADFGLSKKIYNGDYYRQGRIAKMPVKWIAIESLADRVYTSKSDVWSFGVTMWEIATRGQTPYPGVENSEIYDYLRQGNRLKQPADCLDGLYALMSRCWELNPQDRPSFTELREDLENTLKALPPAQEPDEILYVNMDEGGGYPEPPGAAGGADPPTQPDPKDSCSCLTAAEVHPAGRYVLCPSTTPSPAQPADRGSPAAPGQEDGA

Block 1 — SMILES: COc1cc2ncnc(Nc3cccc(Cl)c3)c2cc1OC; read-out: enzyme activity; action: inhibitor; concentration: 0.5 µM; relative to: control
| target | remaining activity |
| --- | --- |
| Death-associated protein kinase 2 (DAPK2, Homo sapiens, UniProt Q9UIK4) | 93.3% |
| Death-associated protein kinase 1 (DAPK1, Homo sapiens, UniProt P53355) | 108% |
| cGMP-dependent protein kinase 1, isoform beta (PRKG1, Homo sapiens, UniProt Q13976) | 95.2% |
| cAMP-dependent protein kinase catalytic subunit alpha (PRKACA, Homo sapiens, UniProt P17612) | 98.6% |
| G protein-coupled receptor kinase 3 (GRK3, Homo sapiens, UniProt P35626) | 99.9% |
| Serine/threonine-protein kinase Chk2 (CHEK2, Homo sapiens, UniProt O96017) | 79.7% |
| Inhibitor of nuclear factor kappa-B kinase subunit beta (IKBKB, Homo sapiens, UniProt O14920) | 102% |
| Tyrosine-protein kinase Lyn, isoform B (LYN, Homo sapiens, UniProt P07948) | 71.7% |
| Inhibitor of nuclear factor kappa-B kinase subunit epsilon (IKBKE, Homo sapiens, UniProt Q14164) | 101% |
| Serine/threonine-protein kinase Nek2 (NEK2, Homo sapiens, UniProt P51955) | 88.3% |
| TGF-beta receptor type-1 (TGFBR1, Homo sapiens, UniProt P36897) | 100% |
| Mitogen-activated protein kinase kinase kinase 3 (MAP3K3, Homo sapiens, UniProt Q99759) | 88.3% |
| Calcium/calmodulin-dependent protein kinase type II subunit delta (CAMK2D, Homo sapiens, UniProt Q13557) | 96.1% |
| Serine/threonine-protein kinase OSR1 (OXSR1, Homo sapiens, UniProt O95747) | 92% |
| Cyclin-dependent kinase 5, with p25 (CDK5, Homo sapiens, UniProt Q00535) | 87.3% |
| TGF-beta receptor type-2 (TGFBR2, Homo sapiens, UniProt P37173) | 94.5% |
| STE20/SPS1-related proline-alanine-rich protein kinase (STK39, Homo sapiens, UniProt Q9UEW8) | 97% |
| Serine/threonine-protein kinase 10 (STK10, Homo sapiens, UniProt O94804) | 24.5% |
| Mitogen-activated protein kinase 9 (MAPK9, Homo sapiens, UniProt P45984) | 92.2% |
| Calcium/calmodulin-dependent protein kinase kinase 2 (CAMKK2, Homo sapiens, UniProt Q96RR4) | 97.5% |
| Protein kinase C alpha type (PRKCA, Homo sapiens, UniProt P17252) | 111% |
| Cyclin-dependent kinase 4, with cyclin D1 (CDK4, Homo sapiens, UniProt P11802) | 103% |
| Serine/threonine-protein kinase STK11 (STK11, Homo sapiens, UniProt Q15831) | 96.8% |
| Protein kinase C beta type, isoform beta-I (PRKCB, Homo sapiens, UniProt P05771) | 103% |

Block 2 — concentration: 1 µM
Compound: COc1cc(-c2cn(C3CCc4ccccc4N(CC(F)(F)F)C3=O)nn2)ccc1-n1ccc(C)n1 (centres unmarked)
| target | test | remaining binding [%] |
| --- | --- | --- |
| Serine/threonine-protein kinase haspin (HASPIN, Homo sapiens, UniProt Q8TF76) | cell-free assay, competition with immobilised ligand | 83 |
| Mitogen-activated protein kinase kinase kinase kinase 2 (MAP4K2, Homo sapiens, UniProt Q12851) | cell-free assay, competition with immobilised ligand | 80 |
| Mitogen-activated protein kinase kinase kinase 6 (MAP3K6, Homo sapiens, UniProt O95382) | cell-free assay, competition with immobilised ligand | 53 |
| Serine/threonine-protein kinase PLK1 (PLK1, Homo sapiens, UniProt P53350) | cell-free assay, competition with immobilised ligand | 84 |
| Epidermal growth factor receptor (EGFR, Homo sapiens, UniProt P00533, L858R) | cell-free assay, competition with immobilised ligand | 97 |
| Serine/threonine-protein kinase D3 (PRKD3, Homo sapiens, UniProt O94806) | cell-free assay, competition with immobilised ligand | 100 |
| Tyrosine-protein kinase receptor UFO (AXL, Homo sapiens, UniProt P30530) | binding, competition with immobilised ligand | 93 |
| Dual specificity protein kinase TTK (TTK, Homo sapiens, UniProt P33981) | cell-free assay, competition with immobilised ligand | 100 |
| Serine/threonine-protein kinase 32C (STK32C, Homo sapiens, UniProt Q86UX6) | cell-free assay, competition with immobilised ligand | 84 |
| Serine/threonine-protein kinase Nek5 (NEK5, Homo sapiens, UniProt Q6P3R8) | cell-free assay, competition with immobilised ligand | 100 |
| Tyrosine-protein kinase ABL1, non-phosphorylated (ABL1, Homo sapiens, UniProt P00519, F317L) | cell-free assay, competition with immobilised ligand | 64 |
| LIM domain kinase 2 (LIMK2, Homo sapiens, UniProt P53671) | cell-free assay, competition with immobilised ligand | 100 |
| Maternal embryonic leucine zipper kinase (MELK, Homo sapiens, UniProt Q14680) | cell-free assay, competition with immobilised ligand | 96 |
| Cyclin-dependent kinase 19 (CDK19, Homo sapiens, UniProt Q9BWU1) | competition binding | 72 |
| Serine/threonine-protein kinase SBK1 (SBK1, Homo sapiens, UniProt Q52WX2) | cell-free assay, competition with immobilised ligand | 94 |
| Dual specificity tyrosine-phosphorylation-regulated kinase 1B (DYRK1B, Homo sapiens, UniProt Q9Y463) | cell-free assay, competition with immobilised ligand | 100 |
| Dual specificity mitogen-activated protein kinase kinase 1 (MAP2K1, Homo sapiens, UniProt Q02750) | cell-free assay, competition with immobilised ligand | 100 |
| Serine/threonine-protein kinase STK11 (STK11, Homo sapiens, UniProt Q15831) | cell-free assay, competition with immobilised ligand | 100 |
| Cyclin-dependent kinase 13 (CDK13, Homo sapiens, UniProt Q14004) | cell-free assay, competition with immobilised ligand | 100 |
| AP2-associated protein kinase 1 (AAK1, Homo sapiens, UniProt Q2M2I8) | binding | 100 |
| Mitogen-activated protein kinase kinase kinase 1 (MAP3K1, Homo sapiens, UniProt Q13233) | cell-free assay, competition with immobilised ligand | 72 |
| Receptor-type tyrosine-protein kinase FLT3 (FLT3, Homo sapiens, UniProt P36888, D835V/ITD) | cell-free assay, competition with immobilised ligand | 99 |
| Serine/threonine-protein kinase SIK2 (SIK2, Homo sapiens, UniProt Q9H0K1) | cell-free assay, competition with immobilised ligand | 100 |
| Ribosomal protein S6 kinase alpha-6, C-terminal kinase domain (RPS6KA6, Homo sapiens, UniProt Q9UK32) | cell-free assay, competition with immobilised ligand | 91 |
| Ribosomal protein S6 kinase alpha-2, N-terminal kinase domain (RPS6KA2, Homo sapiens, UniProt Q15349) | cell-free assay, competition with immobilised ligand | 100 |

Block 3 — read-out: binding; concentration: 1 µM
SMILES: COc1ccc2[nH]c3c4[nH]c5ccc(OC)cc5c4c4c(c3c2c1)C(=O)NC4=O
| target | test | remaining binding [%] |
| --- | --- | --- |
| Phosphatidylinositol 4,5-bisphosphate 3-kinase catalytic subunit alpha isoform (PIK3CA, Homo sapiens, UniProt P42336, M1043I) | – | 95 |
| Phosphatidylinositol 5-phosphate 4-kinase type-2 gamma (PIP4K2C, Homo sapiens, UniProt Q8TBX8) | – | 28 |
| Serine/threonine-protein kinase RIO3 (RIOK3, Homo sapiens, UniProt O14730) | – | 100 |
| Serine/threonine-protein kinase Nek3 (NEK3, Homo sapiens, UniProt P51956) | – | 67 |
| Insulin-like growth factor 1 receptor (IGF1R, Homo sapiens, UniProt P08069) | – | 97 |
| Ephrin type-A receptor 5 (EPHA5, Homo sapiens, UniProt P54756) | competition with immobilised ligand | 85 |
| Serine/threonine-protein kinase ULK3 (ULK3, Homo sapiens, UniProt Q6PHR2) | competition with immobilised ligand | 43 |
| Mast/stem cell growth factor receptor Kit (KIT, Homo sapiens, UniProt P10721, D816H) | – | 6.6 |
| Serine/threonine-protein kinase SIK2 (SIK2, Homo sapiens, UniProt Q9H0K1) | competition with immobilised ligand | 9.9 |
| Cyclin-dependent kinase-like 3 (CDKL3, Homo sapiens, UniProt Q8IVW4) | competition with immobilised ligand | 91 |

Block 4 — route: subcutaneous; time: 5 days
SMILES: CC(=O)N[C@@H](Cc1c[nH]c2ccccc12)C(=O)N[C@@H](CCC(=O)C=[N+]=[N-])C(=O)OC(C)C
| test | test system | setting | how to read | metabolite peak intensity |
| --- | --- | --- | --- | --- |
| LC-MS/MS metabolomics, measured: methylphosphate | C57BL/6 CES1-/- mice, EL4 tumour, EL4 tumour | 0.3 mg/kg/day DON equivalent | higher = more metabolite | 1.02e+06 a.u. and 838000 a.u. and 606000 a.u. and 894000 a.u. and 764000 a.u. and 819000 a.u. |
| LC-MS/MS metabolomics, measured: 2'-deoxyuridine | C57BL/6 CES1-/- mice, EL4 tumour, EL4 tumour | 0.3 mg/kg/day DON equivalent, normalised to tissue mass | higher = more metabolite | 417000 a.u. and 861000 a.u. and 846000 a.u. and 900000 a.u. and 586000 a.u. and 702000 a.u. |
| UPLC-MS/MS metabolomics, measured: N-acetylserine | C57BL/6 CES1-/- mice, EL4 tumour, EL4 tumour | 0.3 mg/kg/day DON equivalent, normalised to tissue mass | higher = more metabolite | 3.69e+07 a.u. and 3.21e+07 a.u. and 2.99e+07 a.u. and 3.84e+07 a.u. and 2.14e+07 a.u. and 2.95e+07 a.u. |
| LC-MS/MS metabolomics, measured: 3-hydroxyisobutyrate | C57BL/6 CES1-/- mice, EL4 tumour, EL4 tumour | 0.3 mg/kg/day DON equivalent, normalised to tissue mass | higher = more metabolite | 5.29e+06 a.u. and 3.96e+06 a.u. and 4.85e+06 a.u. and 8.91e+06 a.u. and 4.46e+06 a.u. and 3.08e+06 a.u. |
| UPLC-MS/MS metabolomics, measured: N-delta-acetylornithine | C57BL/6 CES1-/- mice, EL4 tumour, EL4 tumour | 0.3 mg/kg/day DON equivalent, normalised to tissue mass | higher = more metabolite | 260000 a.u. and 271000 a.u. and 182000 a.u. and 323000 a.u. and 273000 a.u. and 148000 a.u. |
| LC-MS/MS, measured: N-acetylmethionine sulfoxide | C57BL/6 CES1-/- mice, EL4 tumour | 0.3 mg/kg DON equivalent | – | 8.87e+06 a.u. and 1.62e+07 a.u. and 9.68e+06 a.u. and 1.49e+07 a.u. and 9.8e+06 a.u. and 1.07e+07 a.u. |
| UPLC-MS/MS metabolomics, measured: N-acetyltaurine | C57BL/6 CES1-/- mice, EL4 tumour, EL4 tumour | 0.3 mg/kg/day DON equivalent, normalised to tissue mass | higher = more metabolite | 1.52e+06 a.u. and 1.05e+06 a.u. and 1.84e+06 a.u. and 2.18e+06 a.u. and 1.39e+06 a.u. and 1.9e+06 a.u. |
| LC-MS/MS metabolomics, measured: 2-phosphoglycerate | C57BL/6 CES1-/- mice, EL4 tumour, EL4 tumour | 0.3 mg/kg/day DON equivalent, normalised to tissue mass | higher = more metabolite | 1.25e+07 a.u. and 1.67e+07 a.u. and 1.46e+07 a.u. and 1.18e+07 a.u. and 5.42e+06 a.u. and 1.05e+07 a.u. |
| UPLC-MS/MS, measured: isovalerylglycine | EL4, C57BL/6 CES1-/- mice, EL4 tumour, tumour | 0.3 mg/kg/day DON equivalent, normalised to tissue mass | higher = more metabolite | 130000 a.u. and 154000 a.u. and 62600 a.u. and 81000 a.u. and 162000 a.u. and 124000 a.u. |
